Measured values from different studies.
Lines come from different studies, so protocols differ. ± gives the spread as reported.

SMILES	assay	test system	conditions	quantity	result
COc1cc2c3cc(OC)c(OC)cc3c3c[n+]4c(cc3c2cc1OC)CCCC4		swine cells	24 (unit not given)	CC50	> 100 µM
CCCCCCCCCCCCC(=O)O.O=C1CCCC2C3CCCN4CCCC(CN12)C34 (centres unmarked)		water	concentration not given, 308.15 K	critical aggregation concentration	0.00099 mol/kg
CCCC[C@H]1C(=O)N(C)[C@@H](CCCC)C(=O)N[C@@H](CCCNC(=O)CN2CCN(CC(=O)O)CCN(CC(=O)O)CCN(CC(=O)O)CC2)C(=O)N[C@H](C(=O)NCC(N)=O)CSCC(=O)N[C@@H](Cc2ccc(O)cc2)C(=O)N(C)[C@@H](C)C(=O)N[C@@H](CC(N)=O)C(=O)N2CCC[C@H]2C(=O)N[C@@H](Cc2c[nH]cn2)C(=O)N[C@@H](CC(C)C)C(=O)N(C)CC(=O)N[C@@H](Cc2c[nH]c3ccccc23)C(=O)N[C@@H](CO)C(=O)N[C@@H](Cc2c[nH]c3ccccc23)C(=O)N1C [gallium-68 labelled]	static PET	NOD/SCID mice, CHO-hPD-L1 xenograft, CHO-hPD-L1 tumour	intravenous, 1 h post injection, after two PBS treatments	tumour to muscle ratio	6.1 ± 0.64
O=c1cc(-c2ccccc2)oc2c(Br)c(O)c(O)c(O)c12		C57BL/6 mouse, plasma	po, 250 mg/kg	CL	99.8 ± 52.4 mL/h
CN(C)C(CNC(=O)Nc1cc(C(F)(F)F)ccc1N1CCOCC1)c1ccncc1 (centres unmarked)		mouse, serum	intraperitoneal, 240 mg/kg single dose	serum potassium	5.7 mmol/L
COC1CC(OC2CCC3(C)C4CCC5(C)C(C6=CC(=O)OC6)CCC5(O)C4CCC3(O)C2)OC(C)C1OC1OC(CO)C(O)C(O)C1O (centres unmarked)		rat liver S9	1 and 3 µg/mL, 120 min	metabolic stability	stable
CC(C)[C@@H]1NC(=O)[C@H](Cc2ccccc2)NC(=O)[C@H](Cc2ccc(O)cc2)NC(=O)CCSSC[C@@H](C(=O)N2CCC[C@H]2C(=O)N[C@H](CCCNC(=N)N)C(=O)NCC(N)=O)NC(=O)[C@H](CCC(N)=O)NC1=O		Wistar rat, blood	intravenous, 10 µg/kg single dose, 72 h	haematocrit	41 ± 2.2%
CCNc1cc2[o+]c3cc(NCC)c(C)cc3c(-c3ccccc3C(=O)OCCOCC[18F])c2cc1C		rat, heart	120 min	tissue uptake	1.77 ± 0.15 %ID/g
COc1cc(NC(=O)C(=O)c2c(C)n(Cc3ccc(Cl)cc3)c3ccc(C)cc23)ccn1		cynomolgus monkey, male, plasma	oral, 10 mg/kg	AUC(0-inf)	2630 ng·h/mL
CCCCCCCCCCCCCCCC(=O)N=C(N)NCCC[C@H](NC(=O)[C@H](CC(C)C)NC(=O)[C@@H](CC(C)C)NC(=O)[C@H](Cc1ccc(O)cc1)NC(=O)[C@H](CO)NC(=O)[C@H](Cc1c[nH]c2ccccc12)NC(=O)[C@H](Cc1c[nH]cn1)NC(=O)[C@@H]1CCC(=O)N1)C(=O)N1CCC[C@H]1C(=O)NCC		human plasma	21 days, pH 7.4, 37 °C	conversion to leucine	92.4 ± 6.47%
O=C(c1ccc(F)cc1)C1CCN(C2Cc3c(cccc3OCC[18F])CC2O)CC1 (single isomer, unassigned; (-))		Sprague-Dawley rat, male, bone	intravenous, dose not given, 30 min	tissue uptake	0.369 ± 0.02 %ID/g

For quick reference, copied from above:
SMILES	assay	test system	conditions	quantity	result
O=C(c1ccc(F)cc1)C1CCN(C2Cc3c(cccc3OCC[18F])CC2O)CC1 (single isomer, unassigned; (-))		Sprague-Dawley rat, male, bone	intravenous, dose not given, 30 min	tissue uptake	0.369 ± 0.02 %ID/g
